{"data": "Experimental data from different studies", "Tmem97": "Sigma intracellular receptor 2 (Tmem97, Rattus norvegicus, UniProt Q5U3Y7)", "TDP1": "Tyrosyl-DNA phosphodiesterase 1 (TDP1, Homo sapiens, UniProt Q9NUW8)", "MAOB": "Amine oxidase [flavin-containing] B (MAOB, Homo sapiens, UniProt P27338)", "note": "Each line is one published result; not all experiments were run side by side. ± marks the error that the study gave.", "UniProt P27338, sequence (whole entry, looked up)": "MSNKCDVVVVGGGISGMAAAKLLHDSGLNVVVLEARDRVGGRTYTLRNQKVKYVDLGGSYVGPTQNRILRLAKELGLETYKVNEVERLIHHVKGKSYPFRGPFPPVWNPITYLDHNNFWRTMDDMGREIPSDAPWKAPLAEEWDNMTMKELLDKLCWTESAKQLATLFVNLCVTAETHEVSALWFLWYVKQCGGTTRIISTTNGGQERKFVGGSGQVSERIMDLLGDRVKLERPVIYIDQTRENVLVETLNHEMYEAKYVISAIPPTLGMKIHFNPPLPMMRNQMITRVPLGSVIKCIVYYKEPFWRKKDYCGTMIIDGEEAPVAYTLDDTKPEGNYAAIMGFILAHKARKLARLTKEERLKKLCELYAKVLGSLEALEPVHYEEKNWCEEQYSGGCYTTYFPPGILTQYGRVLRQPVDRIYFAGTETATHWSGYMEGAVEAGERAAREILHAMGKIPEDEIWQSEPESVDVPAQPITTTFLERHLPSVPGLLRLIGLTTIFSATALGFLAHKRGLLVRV", "UniProt Q9NUW8, sequence (whole entry, looked up)": "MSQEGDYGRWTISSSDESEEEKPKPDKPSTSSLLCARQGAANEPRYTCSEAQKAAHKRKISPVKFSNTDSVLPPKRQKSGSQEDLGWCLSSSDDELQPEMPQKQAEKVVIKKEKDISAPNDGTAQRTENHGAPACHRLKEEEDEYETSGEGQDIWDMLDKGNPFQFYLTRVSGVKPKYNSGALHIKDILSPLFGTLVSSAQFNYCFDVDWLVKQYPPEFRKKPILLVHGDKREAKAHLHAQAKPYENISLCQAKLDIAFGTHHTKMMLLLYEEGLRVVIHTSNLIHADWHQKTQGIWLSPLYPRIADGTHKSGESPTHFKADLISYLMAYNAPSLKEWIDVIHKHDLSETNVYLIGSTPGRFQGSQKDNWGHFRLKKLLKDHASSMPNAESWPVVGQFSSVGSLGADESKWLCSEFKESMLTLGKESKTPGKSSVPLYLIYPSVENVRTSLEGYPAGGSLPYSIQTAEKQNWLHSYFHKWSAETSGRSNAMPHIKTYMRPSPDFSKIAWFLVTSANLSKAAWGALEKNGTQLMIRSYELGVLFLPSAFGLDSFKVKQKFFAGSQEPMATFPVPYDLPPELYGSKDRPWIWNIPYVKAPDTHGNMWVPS", "UniProt Q5U3Y7, sequence (whole entry, looked up)": "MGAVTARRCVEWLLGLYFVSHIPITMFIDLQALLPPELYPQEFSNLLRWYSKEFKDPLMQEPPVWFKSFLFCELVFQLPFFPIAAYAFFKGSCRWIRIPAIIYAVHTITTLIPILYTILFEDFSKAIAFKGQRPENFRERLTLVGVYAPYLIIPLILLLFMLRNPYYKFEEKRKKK", "UniProt Q86U44, sequence (whole entry, looked up)": "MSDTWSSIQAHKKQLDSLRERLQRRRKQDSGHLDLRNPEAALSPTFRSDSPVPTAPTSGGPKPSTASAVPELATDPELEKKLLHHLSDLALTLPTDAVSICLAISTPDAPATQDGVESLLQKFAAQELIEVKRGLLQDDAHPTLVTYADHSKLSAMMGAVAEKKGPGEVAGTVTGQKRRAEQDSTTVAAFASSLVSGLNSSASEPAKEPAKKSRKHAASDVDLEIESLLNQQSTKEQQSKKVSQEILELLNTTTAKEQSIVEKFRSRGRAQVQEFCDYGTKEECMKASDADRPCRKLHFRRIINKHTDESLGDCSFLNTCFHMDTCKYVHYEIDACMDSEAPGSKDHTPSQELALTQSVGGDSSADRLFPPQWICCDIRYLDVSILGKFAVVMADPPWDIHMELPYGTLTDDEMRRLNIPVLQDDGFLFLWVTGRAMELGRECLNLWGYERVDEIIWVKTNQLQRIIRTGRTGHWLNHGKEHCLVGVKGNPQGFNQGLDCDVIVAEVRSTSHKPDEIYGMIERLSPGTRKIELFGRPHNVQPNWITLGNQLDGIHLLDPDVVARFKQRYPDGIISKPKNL", "UniProt P41146, sequence (whole entry, unmodified, looked up)": "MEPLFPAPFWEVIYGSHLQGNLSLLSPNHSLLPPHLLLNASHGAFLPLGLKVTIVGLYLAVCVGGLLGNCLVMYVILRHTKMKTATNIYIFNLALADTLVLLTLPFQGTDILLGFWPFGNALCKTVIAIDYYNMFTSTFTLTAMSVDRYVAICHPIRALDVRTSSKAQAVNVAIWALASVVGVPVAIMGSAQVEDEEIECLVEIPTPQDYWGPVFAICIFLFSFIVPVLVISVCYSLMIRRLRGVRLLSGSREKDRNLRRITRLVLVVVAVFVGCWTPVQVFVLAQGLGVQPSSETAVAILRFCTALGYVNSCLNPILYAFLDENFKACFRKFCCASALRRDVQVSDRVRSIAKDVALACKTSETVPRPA", "UniProt P20309, sequence (whole entry, looked up)": "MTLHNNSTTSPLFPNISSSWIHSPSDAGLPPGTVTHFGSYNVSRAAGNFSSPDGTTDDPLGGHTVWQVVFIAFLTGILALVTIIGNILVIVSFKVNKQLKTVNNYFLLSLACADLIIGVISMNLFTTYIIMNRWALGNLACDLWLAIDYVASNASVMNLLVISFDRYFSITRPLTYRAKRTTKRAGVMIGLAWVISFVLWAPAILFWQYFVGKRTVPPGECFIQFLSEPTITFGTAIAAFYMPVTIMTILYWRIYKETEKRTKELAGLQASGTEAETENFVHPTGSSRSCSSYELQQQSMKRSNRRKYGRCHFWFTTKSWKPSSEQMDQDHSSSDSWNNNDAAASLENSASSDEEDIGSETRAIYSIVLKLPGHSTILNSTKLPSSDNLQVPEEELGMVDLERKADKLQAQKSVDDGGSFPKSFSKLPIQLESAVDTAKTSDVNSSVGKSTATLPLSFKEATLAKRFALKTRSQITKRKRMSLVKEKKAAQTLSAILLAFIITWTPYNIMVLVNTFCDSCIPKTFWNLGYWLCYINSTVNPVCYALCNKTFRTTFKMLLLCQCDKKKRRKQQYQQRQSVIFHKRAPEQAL", "UniProt P11712, sequence (whole entry, looked up)": "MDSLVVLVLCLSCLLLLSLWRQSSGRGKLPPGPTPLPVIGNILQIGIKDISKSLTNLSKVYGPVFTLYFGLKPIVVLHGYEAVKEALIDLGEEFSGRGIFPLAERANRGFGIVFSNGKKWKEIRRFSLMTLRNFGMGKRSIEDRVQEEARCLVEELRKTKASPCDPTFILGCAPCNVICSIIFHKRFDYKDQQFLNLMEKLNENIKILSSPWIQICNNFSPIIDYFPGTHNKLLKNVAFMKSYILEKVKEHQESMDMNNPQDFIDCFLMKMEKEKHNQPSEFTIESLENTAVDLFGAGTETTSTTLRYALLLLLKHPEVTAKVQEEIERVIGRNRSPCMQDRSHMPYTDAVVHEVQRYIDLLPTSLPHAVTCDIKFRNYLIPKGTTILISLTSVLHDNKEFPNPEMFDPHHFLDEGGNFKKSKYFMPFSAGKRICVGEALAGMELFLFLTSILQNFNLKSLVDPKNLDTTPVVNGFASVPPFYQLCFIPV", "UniProt Q8IAS0, sequence (whole entry, looked up)": "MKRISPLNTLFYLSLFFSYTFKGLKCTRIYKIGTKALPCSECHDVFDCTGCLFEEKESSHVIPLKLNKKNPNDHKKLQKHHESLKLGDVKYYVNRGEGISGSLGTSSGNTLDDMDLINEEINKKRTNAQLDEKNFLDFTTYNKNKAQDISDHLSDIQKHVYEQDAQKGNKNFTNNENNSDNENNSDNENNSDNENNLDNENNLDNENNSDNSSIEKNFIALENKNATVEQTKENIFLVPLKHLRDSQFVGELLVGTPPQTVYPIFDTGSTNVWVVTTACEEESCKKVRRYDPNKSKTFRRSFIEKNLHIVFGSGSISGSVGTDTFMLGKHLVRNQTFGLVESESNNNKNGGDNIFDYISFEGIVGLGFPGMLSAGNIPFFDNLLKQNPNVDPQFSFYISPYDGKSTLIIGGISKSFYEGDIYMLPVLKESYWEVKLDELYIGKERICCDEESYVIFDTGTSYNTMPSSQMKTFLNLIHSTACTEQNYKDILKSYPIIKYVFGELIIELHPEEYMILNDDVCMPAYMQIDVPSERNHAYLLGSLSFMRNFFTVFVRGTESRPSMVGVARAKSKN", "UniProt P22310, sequence (whole entry, looked up)": "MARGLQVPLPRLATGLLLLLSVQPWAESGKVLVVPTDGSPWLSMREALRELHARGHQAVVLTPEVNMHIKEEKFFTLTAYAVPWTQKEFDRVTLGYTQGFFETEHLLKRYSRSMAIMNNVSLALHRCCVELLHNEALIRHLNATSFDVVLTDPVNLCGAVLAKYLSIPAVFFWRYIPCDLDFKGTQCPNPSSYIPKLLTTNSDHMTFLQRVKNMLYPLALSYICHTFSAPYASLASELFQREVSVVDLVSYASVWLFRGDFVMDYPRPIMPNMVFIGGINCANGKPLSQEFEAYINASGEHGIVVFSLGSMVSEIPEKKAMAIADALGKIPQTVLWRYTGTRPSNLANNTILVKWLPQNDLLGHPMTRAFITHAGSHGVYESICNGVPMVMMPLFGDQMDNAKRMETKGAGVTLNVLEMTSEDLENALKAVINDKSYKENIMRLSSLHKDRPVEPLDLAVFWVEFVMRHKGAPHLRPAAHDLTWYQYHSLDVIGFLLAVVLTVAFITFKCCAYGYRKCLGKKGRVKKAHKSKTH", "UniProt P41145, sequence (whole entry, looked up)": "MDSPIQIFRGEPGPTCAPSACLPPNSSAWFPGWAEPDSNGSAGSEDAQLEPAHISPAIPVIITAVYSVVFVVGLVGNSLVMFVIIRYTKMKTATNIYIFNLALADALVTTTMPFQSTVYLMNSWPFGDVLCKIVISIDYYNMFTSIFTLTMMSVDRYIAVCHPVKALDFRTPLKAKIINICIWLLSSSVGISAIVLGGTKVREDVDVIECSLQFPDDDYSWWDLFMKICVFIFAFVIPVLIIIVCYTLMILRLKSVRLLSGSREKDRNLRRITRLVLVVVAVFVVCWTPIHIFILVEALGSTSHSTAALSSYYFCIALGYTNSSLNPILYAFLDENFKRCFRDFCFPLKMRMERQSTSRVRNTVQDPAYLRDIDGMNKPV"}
{"Compound": "Cc1ccc(C2CCN(C3CCCCC3O)CC2)cc1 (racemic)", "target": "Tmem97", "assay": "radioligand binding", "system": "rat liver", "setting": "added: [3H]DTG, 1 µM dextrallorphan mask", "quantity": "Ki", "result": "62 ± 18 nM"}
{"Compound": "C[Se+](CCNc1c(N)c(=O)c1=O)C[C@H]1O[C@@H](n2cnc3c(N)ncnc32)[C@H](O)[C@@H]1O (mixture of isomers)", "target": "N6-adenosine-methyltransferase catalytic subunit, with METTL14 (METTL3, Homo sapiens, UniProt Q86U44)", "assay": "inhibitor", "quantity": "Ki", "result": "3 nM"}
{"Compound": "Cc1ccc(C=c2[nH]c3n(c2=O)CCCCC=3C=NOCc2ccc3nc(-c4ccccc4)c(Nc4ccc(C(=O)O)cc4)n3c2)cc1", "target": "TDP1", "assay": "enzyme activity, inhibitor", "setting": "100 µM, unpurified compound", "quantity": "inhibition", "result": "16.4%"}
{"Compound": "Cc1ccc(C2CCN(C3Cc4ccccc4CC3O)CC2)cc1 (racemic)", "target": "Tmem97", "assay": "radioligand binding", "system": "rat liver", "setting": "added: [3H]DTG, 1 µM dextrallorphan mask", "quantity": "Ki", "result": "59 ± 7 nM"}
{"Compound": "COc1ccc(OC)c(C2=Nn3c(nnc3-c3ccc(C)cc3)SC2)c1", "target": "Inorganic pyrophosphatase (ppa, Escherichia coli, UniProt P0A7A9)", "assay": "enzyme activity, inhibitor", "quantity": "IC50", "result": "293 µM"}
{"Compound": "O=C(O)c1ccc(Nc2c(-c3ccc(CON=CCc4ccccc4)cc3)nc3cc(-c4ccccc4)ccn23)cc1", "target": "TDP1", "assay": "enzyme activity, inhibitor", "setting": "100 µM, unpurified compound", "quantity": "inhibition", "result": "38.6%"}
{"Compound": "CCCC(=O)OC1CCC2(C)C(CCC3(C)C2CC=C2C4C(C)C(C)CCC4(C(=O)O)CCC23C)C1(C)C (stereo not shown)", "target": "UDP-glucuronosyltransferase 1A4 (UGT1A4, Homo sapiens, UniProt P22310)", "assay": "enzyme activity, inhibitor", "quantity": "Ki", "result": "610 nM"}
{"Compound": "Cn1ccc2c(N3CCN(CCCCOc4ccc5c(c4)NC(=O)CC5)CC3)cccc21", "target": "Muscarinic acetylcholine receptor M3 (CHRM3, Homo sapiens, UniProt P20309)", "assay": "ligand displacement, radioligand", "quantity": "Ki", "result": "105 nM"}
{"Compound": "CNC(=O)[C@@]12C[C@@H]1[C@@H](n1cnc3c(NCc4cccc(Cl)c4)nc(C#Cc4cccc(Cl)c4)nc31)[C@H](O)[C@@H]2O", "target": "Kappa-type opioid receptor (OPRK1, Homo sapiens, UniProt P41145)", "assay": "cell-free assay", "quantity": "Ki", "result": "> 10000 nM"}
{"Compound": "CCC1(CC)CC(=O)N(C2CCOc3ccc(C(=O)NC4CC(C)(C)Oc5ccccc54)cc32)C(=N)N1 (stereo not shown)", "target": "Plasmepsin X (Plasmodium falciparum, UniProt Q8IAS0)", "assay": "enzyme activity, inhibitor", "quantity": "Ki", "result": "0.01 nM"}
{"Compound": "CC(C)c1ccc(/C=C/C(=O)c2ccc(F)cc2)cc1", "target": "MAOB", "assay": "enzyme activity, inhibitor", "quantity": "Ki", "result": "27 nM"}
{"Compound": "COc1ccc2c(c1OC)O[C@H]1c3ccc(O)cc3OC[C@@H]21", "target": "Cytochrome P450 2C9 (CYP2C9, Homo sapiens, UniProt P11712)", "assay": "enzyme activity, inhibitor", "system": "human, liver microsomes", "setting": "15 min", "quantity": "Ki", "result": "69600 nM"}
{"Compound": "Cc1cc(O)c2c(c1)C(=O)c1c(O)c(O)cc(O)c1C2=O", "target": "MAOB", "assay": "enzyme activity, inhibitor", "quantity": "Ki", "result": "17100 nM"}
{"Compound": "CN(C)c1nc(NCc2ccc(F)cc2)c(/N=N/c2ccc(Cl)cc2)c(N(C)C)n1", "target": "Chitinase (OfChi-h, Ostrinia furnacalis, UniProt Q4AE59)", "assay": "enzyme activity, inhibitor, fluorescence", "quantity": "Ki", "result": "23.2 nM"}
{"Compound": "O=C1c2cc(O)cc(O)c2C(=O)c2c(O)cc(CO)cc21", "target": "MAOB", "assay": "enzyme activity, inhibitor", "quantity": "Ki", "result": "14600 nM"}
{"Compound": "O=C(NCCCN1CCC2(CC1)OCc1ccccc12)C1CCCN1Cc1ccccc1 (stereo not shown)", "target": "Nociceptin receptor (OPRL1, Homo sapiens, UniProt P41146, M134A)", "quantity": "Ki", "result": "0.5 nM"}
